{"data": "Measured values gathered from unrelated publications", "note": "Every numbered part comes from another study and shows a few of its results, in no order.", "chain of UniProt O94804 (whole entry, looked up)": "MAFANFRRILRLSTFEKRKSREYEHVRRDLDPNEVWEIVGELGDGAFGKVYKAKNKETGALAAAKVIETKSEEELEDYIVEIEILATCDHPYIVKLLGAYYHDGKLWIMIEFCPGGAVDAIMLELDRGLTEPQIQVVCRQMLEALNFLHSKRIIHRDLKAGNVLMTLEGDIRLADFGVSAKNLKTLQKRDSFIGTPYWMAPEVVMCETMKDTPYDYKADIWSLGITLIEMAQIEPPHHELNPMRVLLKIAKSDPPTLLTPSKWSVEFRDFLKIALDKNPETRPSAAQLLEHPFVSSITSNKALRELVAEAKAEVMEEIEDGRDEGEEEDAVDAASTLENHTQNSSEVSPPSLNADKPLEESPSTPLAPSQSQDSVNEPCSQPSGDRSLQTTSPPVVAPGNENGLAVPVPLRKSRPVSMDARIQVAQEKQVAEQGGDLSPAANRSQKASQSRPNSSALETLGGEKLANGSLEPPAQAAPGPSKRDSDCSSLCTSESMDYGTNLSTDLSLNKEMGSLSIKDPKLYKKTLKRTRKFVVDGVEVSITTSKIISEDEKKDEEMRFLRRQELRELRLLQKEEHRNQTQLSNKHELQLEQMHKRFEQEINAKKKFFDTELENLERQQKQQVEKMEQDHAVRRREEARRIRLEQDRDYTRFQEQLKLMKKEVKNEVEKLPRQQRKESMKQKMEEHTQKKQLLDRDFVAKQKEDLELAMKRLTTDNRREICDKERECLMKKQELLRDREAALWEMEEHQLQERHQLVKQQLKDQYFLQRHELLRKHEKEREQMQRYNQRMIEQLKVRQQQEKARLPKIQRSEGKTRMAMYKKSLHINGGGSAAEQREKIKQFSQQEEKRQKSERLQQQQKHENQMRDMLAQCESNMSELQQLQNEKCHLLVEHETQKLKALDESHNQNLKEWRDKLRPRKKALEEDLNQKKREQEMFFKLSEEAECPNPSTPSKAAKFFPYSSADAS", "chain of UniProt P30530 (whole entry, looked up)": "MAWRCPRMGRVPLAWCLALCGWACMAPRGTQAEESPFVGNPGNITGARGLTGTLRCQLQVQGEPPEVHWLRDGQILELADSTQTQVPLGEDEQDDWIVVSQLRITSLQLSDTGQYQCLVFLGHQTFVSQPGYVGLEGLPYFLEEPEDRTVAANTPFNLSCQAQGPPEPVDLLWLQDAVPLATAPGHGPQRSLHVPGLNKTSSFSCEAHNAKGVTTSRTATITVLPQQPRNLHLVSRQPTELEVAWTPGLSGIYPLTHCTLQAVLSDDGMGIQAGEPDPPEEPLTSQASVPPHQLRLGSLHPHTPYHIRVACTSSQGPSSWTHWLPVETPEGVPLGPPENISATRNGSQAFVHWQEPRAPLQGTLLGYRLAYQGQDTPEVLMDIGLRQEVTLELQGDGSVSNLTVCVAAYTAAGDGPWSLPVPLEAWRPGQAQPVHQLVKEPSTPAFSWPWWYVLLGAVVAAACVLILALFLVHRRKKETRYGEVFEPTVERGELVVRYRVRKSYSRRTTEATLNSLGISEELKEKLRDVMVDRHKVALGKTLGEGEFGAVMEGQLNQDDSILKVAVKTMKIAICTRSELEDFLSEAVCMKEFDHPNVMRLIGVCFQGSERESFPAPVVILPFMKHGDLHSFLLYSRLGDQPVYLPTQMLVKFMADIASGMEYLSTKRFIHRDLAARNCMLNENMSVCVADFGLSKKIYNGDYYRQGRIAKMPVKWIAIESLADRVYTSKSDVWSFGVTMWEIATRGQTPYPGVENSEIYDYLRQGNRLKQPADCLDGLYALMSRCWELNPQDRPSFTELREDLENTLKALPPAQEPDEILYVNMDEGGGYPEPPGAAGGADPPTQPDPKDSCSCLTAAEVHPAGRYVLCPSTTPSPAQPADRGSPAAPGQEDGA", "chain of UniProt Q9UQB9 (whole entry, looked up)": "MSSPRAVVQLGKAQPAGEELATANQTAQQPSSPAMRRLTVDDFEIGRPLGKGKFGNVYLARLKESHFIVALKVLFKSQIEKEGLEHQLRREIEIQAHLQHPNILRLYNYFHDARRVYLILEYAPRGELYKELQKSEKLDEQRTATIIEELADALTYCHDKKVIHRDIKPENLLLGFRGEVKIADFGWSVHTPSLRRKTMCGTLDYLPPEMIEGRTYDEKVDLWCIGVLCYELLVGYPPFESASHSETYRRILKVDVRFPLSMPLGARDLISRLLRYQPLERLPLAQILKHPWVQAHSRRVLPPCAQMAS", "chain of UniProt Q8TF76 (whole entry, looked up)": "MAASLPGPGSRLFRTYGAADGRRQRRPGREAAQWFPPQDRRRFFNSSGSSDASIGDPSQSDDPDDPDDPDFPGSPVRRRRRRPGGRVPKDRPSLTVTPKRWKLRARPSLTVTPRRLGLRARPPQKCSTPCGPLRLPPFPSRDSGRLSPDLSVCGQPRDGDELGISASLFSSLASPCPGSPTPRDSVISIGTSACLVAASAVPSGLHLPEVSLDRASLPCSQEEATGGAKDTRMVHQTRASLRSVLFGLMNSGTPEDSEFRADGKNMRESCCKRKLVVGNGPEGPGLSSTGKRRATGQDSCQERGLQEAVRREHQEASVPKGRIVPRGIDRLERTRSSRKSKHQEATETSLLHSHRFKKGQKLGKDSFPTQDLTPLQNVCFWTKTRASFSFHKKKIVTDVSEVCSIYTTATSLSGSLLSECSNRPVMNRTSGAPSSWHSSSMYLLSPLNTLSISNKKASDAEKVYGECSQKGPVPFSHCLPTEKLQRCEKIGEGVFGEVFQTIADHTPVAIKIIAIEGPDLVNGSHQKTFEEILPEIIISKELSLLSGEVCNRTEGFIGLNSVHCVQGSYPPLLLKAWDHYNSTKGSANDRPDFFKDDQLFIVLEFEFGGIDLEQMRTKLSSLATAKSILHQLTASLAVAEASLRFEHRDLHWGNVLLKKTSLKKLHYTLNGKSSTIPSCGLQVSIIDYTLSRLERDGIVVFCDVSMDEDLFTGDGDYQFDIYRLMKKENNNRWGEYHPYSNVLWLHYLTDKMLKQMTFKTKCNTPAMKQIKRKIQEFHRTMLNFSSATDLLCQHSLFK", "chain of UniProt Q9UK32 (whole entry, looked up)": "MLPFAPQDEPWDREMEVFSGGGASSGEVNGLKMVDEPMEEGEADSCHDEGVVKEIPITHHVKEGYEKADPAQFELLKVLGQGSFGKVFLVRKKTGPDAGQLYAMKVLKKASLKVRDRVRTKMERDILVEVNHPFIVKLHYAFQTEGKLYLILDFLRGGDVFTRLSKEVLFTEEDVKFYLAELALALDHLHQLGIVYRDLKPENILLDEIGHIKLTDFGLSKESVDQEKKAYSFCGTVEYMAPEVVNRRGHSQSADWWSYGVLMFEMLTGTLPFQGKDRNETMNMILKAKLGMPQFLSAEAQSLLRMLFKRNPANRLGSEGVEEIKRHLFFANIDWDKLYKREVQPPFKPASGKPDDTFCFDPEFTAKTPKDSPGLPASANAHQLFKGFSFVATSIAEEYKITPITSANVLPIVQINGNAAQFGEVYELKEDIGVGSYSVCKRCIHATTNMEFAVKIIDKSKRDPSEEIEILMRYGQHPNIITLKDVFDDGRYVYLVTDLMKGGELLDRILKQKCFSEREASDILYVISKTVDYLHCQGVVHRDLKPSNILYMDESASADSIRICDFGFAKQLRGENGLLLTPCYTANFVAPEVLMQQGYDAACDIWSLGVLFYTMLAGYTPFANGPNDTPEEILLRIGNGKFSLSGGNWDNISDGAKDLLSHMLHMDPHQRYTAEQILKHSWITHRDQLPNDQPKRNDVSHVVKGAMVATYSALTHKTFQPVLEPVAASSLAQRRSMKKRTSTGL", "chain of UniProt Q13554 (whole entry, looked up)": "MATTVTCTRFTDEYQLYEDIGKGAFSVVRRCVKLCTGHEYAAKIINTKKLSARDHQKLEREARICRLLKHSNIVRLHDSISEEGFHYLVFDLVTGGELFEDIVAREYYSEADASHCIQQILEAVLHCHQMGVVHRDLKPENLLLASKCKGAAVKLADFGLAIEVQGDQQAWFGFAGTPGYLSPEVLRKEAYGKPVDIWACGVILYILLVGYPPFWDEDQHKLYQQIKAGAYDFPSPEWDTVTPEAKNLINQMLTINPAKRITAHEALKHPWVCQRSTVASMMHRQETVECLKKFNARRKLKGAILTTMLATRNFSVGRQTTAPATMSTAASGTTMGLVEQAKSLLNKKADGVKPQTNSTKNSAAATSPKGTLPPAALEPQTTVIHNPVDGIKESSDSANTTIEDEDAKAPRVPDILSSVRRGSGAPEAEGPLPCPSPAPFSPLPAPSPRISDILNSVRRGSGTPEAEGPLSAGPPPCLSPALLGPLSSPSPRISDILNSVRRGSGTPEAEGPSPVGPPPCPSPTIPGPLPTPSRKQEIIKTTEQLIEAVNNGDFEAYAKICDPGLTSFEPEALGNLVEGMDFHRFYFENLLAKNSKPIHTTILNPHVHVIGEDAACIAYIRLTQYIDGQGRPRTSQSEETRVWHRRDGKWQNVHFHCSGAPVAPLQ"}
{"data": "Sample 1", "target": "Histone acetyltransferase KAT6A, winged helix 1, GST fusion (KAT6A, Homo sapiens, UniProt Q92794, residues 1-85)", "technique": "protein binding microarray", "molecule type": "double-stranded DNA, one strand shown", "medium": "in vitro", "tested at": "not given", "notes": "8-mer, flanks averaged, mean of 2 arrays, mostly near background", "relative to": "not given", "reading": "higher = stronger binding", "Target sequence (chain)": "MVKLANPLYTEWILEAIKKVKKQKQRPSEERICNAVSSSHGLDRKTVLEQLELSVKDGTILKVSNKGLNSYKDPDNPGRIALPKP"}
{"Oligonucleotide": "CAAAGCGA", "E-score": -0.0537}
{"Oligonucleotide": "CCACTCCA", "E-score": -0.196}
{"Oligonucleotide": "CACATCGC", "E-score": 0.077}
{"Oligonucleotide": "CGCCATCC", "E-score": 0.0642}
{"Oligonucleotide": "CGCCGCCA", "E-score": 0.409}
{"Oligonucleotide": "GATCTACC", "E-score": -0.0966}
{"Oligonucleotide": "ATAAGCGG", "E-score": 0.14}
{"Oligonucleotide": "ACCCACCG", "E-score": 0.128}
{"data": "Sample 2", "Compound": "CC(=O)N1CCC(c2ccc(C(=O)NC(=N)N)cc2C(F)(F)F)CC1", "read-out": "cell-free assay", "technique": "competition with immobilised ligand", "tested at": "1 µM"}
{"target": "FLT3 (Homo sapiens, UniProt P36888, D835H)", "remaining binding [%]": 96}
{"target": "STK10 (Homo sapiens, UniProt O94804)", "remaining binding [%]": 94}
{"target": "WEE1 (Homo sapiens, UniProt P30291)", "remaining binding [%]": 100}
{"target": "BMP2K (Homo sapiens, UniProt Q9NSY1)", "remaining binding [%]": 96}
{"target": "PIK3CA (Homo sapiens, UniProt P42336, Q546K)", "remaining binding [%]": 100}
{"target": "WNK3 (Homo sapiens, UniProt Q9BYP7)", "remaining binding [%]": 84}
{"target": "Aurora kinase C (AURKC, Homo sapiens, UniProt Q9UQB9)", "remaining binding [%]": 100}
{"target": "CSNK1D (Homo sapiens, UniProt P48730)", "remaining binding [%]": 100}
{"target": "STK11 (Homo sapiens, UniProt Q15831)", "remaining binding [%]": 73}
{"target": "HASPIN (Homo sapiens, UniProt Q8TF76)", "remaining binding [%]": 100}
{"target": "Ribosomal protein S6 kinase alpha-2, N-terminal kinase domain (RPS6KA2, Homo sapiens, UniProt Q15349)", "remaining binding [%]": 90}
{"target": "PRKD3 (Homo sapiens, UniProt O94806)", "remaining binding [%]": 80}
{"target": "EGFR (Homo sapiens, UniProt P00533, T790M)", "remaining binding [%]": 100}
{"target": "Receptor-type tyrosine-protein kinase FLT3, autoinhibited (FLT3, Homo sapiens, UniProt P36888)", "remaining binding [%]": 100}
{"target": "EGFR (Homo sapiens, UniProt P00533, del746-750)", "remaining binding [%]": 100}
{"target": "CDC42BPB (Homo sapiens, UniProt Q9Y5S2)", "remaining binding [%]": 100}
{"target": "CDK13 (Homo sapiens, UniProt Q14004)", "remaining binding [%]": 100}
{"data": "Sample 3", "SMILES": "O=C1NC(=O)/C(=C/c2ccc3nccnc3c2)S1", "read-out": "enzyme activity", "action": "inhibitor", "tested at": "0.5 µM", "relative to": "control"}
{"target": "RPS6KA6 (Homo sapiens, UniProt Q9UK32)", "remaining activity [%]": 87.6}
{"target": "AXL (Homo sapiens, UniProt P30530)", "remaining activity [%]": 112}
{"target": "CAMK2B (Homo sapiens, UniProt Q13554)", "remaining activity [%]": 89.3}
{"target": "BLK (Homo sapiens, UniProt P51451)", "remaining activity [%]": 99.4}
{"data": "Sample 4", "target": "ATP-dependent RNA helicase DDX3X, helicase core (DDX3X, Homo sapiens, UniProt O00571, residues 132-607)", "technique": "RNA Bind-n-Seq", "molecule type": "RNA", "medium": "in vitro", "tested at": "90 pmol", "notes": "4-mer, random 30-nt RNA, single round", "added": "3 µM DMDA-PatA, 2 mM ADP, 2 mM phosphate", "relative to": "input library", "reading": "higher = stronger binding", "chain of UniProt O00571 (132-607, looked up)": "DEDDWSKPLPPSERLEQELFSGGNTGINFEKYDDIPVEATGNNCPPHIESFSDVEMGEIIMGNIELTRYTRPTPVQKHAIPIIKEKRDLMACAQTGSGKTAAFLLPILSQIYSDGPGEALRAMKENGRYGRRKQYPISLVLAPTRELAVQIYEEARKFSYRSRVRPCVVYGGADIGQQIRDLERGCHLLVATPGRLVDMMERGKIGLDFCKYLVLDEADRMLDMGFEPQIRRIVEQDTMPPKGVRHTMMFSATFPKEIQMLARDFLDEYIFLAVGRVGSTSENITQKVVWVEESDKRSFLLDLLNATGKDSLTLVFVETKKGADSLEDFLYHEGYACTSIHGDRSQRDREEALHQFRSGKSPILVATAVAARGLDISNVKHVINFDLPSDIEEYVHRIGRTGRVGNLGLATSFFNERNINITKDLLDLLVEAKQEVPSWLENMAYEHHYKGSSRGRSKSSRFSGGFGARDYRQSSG"}
{"Oligonucleotide": "AGCG", "4-mer enrichment": "1.09 fold"}
{"Oligonucleotide": "UUUC", "4-mer enrichment": "0.948 fold"}
{"Oligonucleotide": "AUGA", "4-mer enrichment": "1.02 fold"}
{"Oligonucleotide": "GGGA", "4-mer enrichment": "1.24 fold"}
{"Oligonucleotide": "GGGG", "4-mer enrichment": "1.31 fold"}
{"Oligonucleotide": "GGUG", "4-mer enrichment": "1.17 fold"}
{"Oligonucleotide": "CUGG", "4-mer enrichment": "0.818 fold"}
{"Oligonucleotide": "UUCC", "4-mer enrichment": "0.935 fold"}
{"note": "A few entries again (sample 2):"}
{"target": "EGFR (Homo sapiens, UniProt P00533, del746-750)", "remaining binding [%]": 100}
{"target": "CDC42BPB (Homo sapiens, UniProt Q9Y5S2)", "remaining binding [%]": 100}
{"target": "CDK13 (Homo sapiens, UniProt Q14004)", "remaining binding [%]": 100}
